Published values collected from several papers.
Protocols differ between the studies behind these lines. “And” joins repeats or separate records; there may be more than shown. Numbers after ± are the reported error.

C/C=C(/C)C(=O)OC[C@H]1[C@@H](Cc2ccc(C(C)(C)C)cc2)CO[C@@H]1c1ccc(F)cc1
IC50 (NF-κB; reporter gene; HEK293/NF-κB-luc; 4 h, with: TNFα 2 ng/mL): ≥ 20 µM

Nc1ncc2c(n1)-c1c([nH]c3ccc(C4=CCOCC4)cc13)CCC2
remaining binding (FLT3 ITD; scanMAX; 1 µM; relative to: control): 100%

Cc1[nH]nc2c1N=C(c1ccccc1Cl)c1cnc(N3CCOCC3)cc1N2
inhibition (P2X receptor, rabbit; radioligand binding; 10 µM): -9%

O=C(N/N=C/c1cc[n+](Cc2ccccc2)c2ccccc12)c1cncc(C(=O)N/N=C/c2cc[n+](Cc3ccccc3)c3ccccc23)n1
ΔTm (hp2 hairpin duplex DNA; FRET melting; 1 µM, with: ds26 10 µM): 1.1 °C

CCCCCCc1cccc([C@H](O)C[C@H](CO)NC(=O)CCCCCCCCCCBr)c1
sphingomyelin level (CERT; HPLC-MS/MS, item: total sphingomyelin; HeLa; 1 µM, 24 h): 959000 pmol/sample and 945000 pmol/sample and 728000 pmol/sample

C=CC(=O)Nc1cccc(Cn2ncc3cnc(Nc4cnn(CCOC)c4)nc32)c1
percent of control (DAPK1 human; binding, KINOMEscan; 100 nM; lower = stronger binding): 94%

Nc1ncc(-c2cc(-c3cnn(CC(F)(F)F)c3)ncc2F)nc1C(=O)NC1CNCC(F)C1 (stereo not shown)
remaining binding (ACVR1; KINOMEscan; 1 µM; relative to: DMSO control): 73%

CC(=O)NCC1CCCCN1c1nc(N2CCN(c3nnc[nH]3)CC2)nc(N2CC3C(CCOc4cc(-c5scnc5C)ccc4CNC(=O)[C@@H]4C[C@@H](O)CN4C(=O)[C@@H](NC(=O)C4(F)CC4)C(C)(C)C)C3C2)n1 (stereo partly shown)
cooperativity alpha (VHL-elongin C-elongin B and BRD9; SPR; immobilized VHL-elongin C-elongin B; relative to: binary KD over ternary KD): 10

O=C(N/N=C/c1cc[n+](Cc2ccccc2)c2ccccc12)c1cccc(C(=O)N/N=C/c2cc[n+](Cc3ccccc3)c3ccccc23)n1
ΔTm (MYC parallel G4 DNA; FRET melting; 1 µM, DNA 0.2 µM, with: duplex DNA competitor 10 µM): 11.1 ± 0.1 °C

CN(Cc1ccc(/C=C/C(=O)NO)cc1)CC12CC3CC(CC(C3)C1)C2
DAT occupancy (dopamine transporter, rat; [11C]β-CFT PET; rat; intraperitoneal, 1 mg/kg, 90 min before tracer): no effect

O=C(N/N=C/c1cc[n+](Cc2ccccc2)c2ccccc12)N/N=C/c1cc[n+](Cc2ccccc2)c2ccccc12
ΔTm (MYC parallel G4 DNA; FRET melting; 1 µM, DNA 0.2 µM, with: duplex DNA competitor 10 µM): 4.4 ± 0.2 °C

Fc1ccc(Nc2nc(NC3CCCCC3)c3ccccc3n2)cc1F
pIC50 (β2AR/β1AR ECL2/3 chimera; β-arrestin2 recruitment, antagonist, BRET; with: isoprenaline 1 µM): 5.8

O=C(N/N=C/c1ccc2c(ccc[n+]2Cc2ccccc2)c1)c1cccc(C(=O)N/N=C/c2ccc3c(ccc[n+]3Cc3ccccc3)c2)n1
ΔTm (MYC parallel G4 DNA; FRET melting; 1 µM, DNA 0.2 µM): 11.8 ± 0.5 °C

C=CC(=O)N1[C@@H](c2ccc3c(c2)OCO3)c2[nH]c3ccccc3c2C[C@H]1C(=O)N1CCN(C)CC1
log2 fold change (CCNE1 WT-3xFLAG:CDK2 complex; co-IP TMT proteomics, item: RBL1; HEK-293T; 20 µM, 6 h; relative to: DMSO): 0.07

O=C(N/N=C/c1ccc2c(ccc[n+]2Cc2ccccc2)c1)c1ccc2ccc3ccc(C(=O)N/N=C/c4ccc5c(ccc[n+]5Cc5ccccc5)c4)nc3c2n1
ΔTm (MYC parallel G4 DNA; FRET melting; 1 µM, DNA 0.2 µM, with: duplex DNA competitor 10 µM): 15.4 ± 1.2 °C

O=C(CCCCCOc1ccc2ccccc2c1)N[C@@H](CO)C[C@@H](O)c1ccc(-c2ccccc2)cc1
sphingomyelin level (CERT; HPLC-MS/MS, item: SM 24:1; HeLa; 1 µM, 24 h): 127000 pmol/sample and 148000 pmol/sample and 147000 pmol/sample

O=C(N/N=C/c1cc[n+](Cc2ccccc2)c2ccccc12)C(=O)N/N=C/c1cc[n+](Cc2ccccc2)c2ccccc12
ΔTm (hp2 hairpin duplex DNA; FRET melting; 1 µM): 1.5 ± 0.3 °C

CC(=O)NCCN(CC(=O)NCCN(CC(=O)NCCN(CC(=O)NCCC(N)=O)C(=O)C[C@@H](N)Cc1ccccc1)C(=O)C[C@@H](N)CCCNC(=N)N)C(=O)C[C@@H](N)CCCNC(=N)N
melting temperature (HIV-1 TAR RNA; RNA thermal stability, UV melting; 5 µM, pH 7.5, with: 1 µM TAR RNA): 64.3 ± 0.1 °C

CC(=O)NCC1CCCCN1c1nc(NCCn2nnc(C)n2)nc(N2CC3C(CCOc4cc(-c5scnc5C)ccc4CNC(=O)[C@@H]4C[C@@H](O)CN4C(=O)[C@@H](NC(=O)C4(F)CC4)C(C)(C)C)C3C2)n1 (stereo partly shown)
cooperativity alpha (VHL-elongin C-elongin B and BRD9; SPR; immobilized VHL-elongin C-elongin B; relative to: binary KD over ternary KD): 11

c1ccc(-c2n[nH]cc2-c2ccnc3ccccc23)nc1
log2 fold change (SHA3 (Candida albicans); kinase binding, MIB/MS competition; Candida albicans lysate; 10 µM; relative to: DMSO): -0.28

O=C(N/N=C/c1cc[n+](CC2CC2)c2ccccc12)N/N=C/c1cc[n+](CC2CC2)c2ccccc12
ΔTm (MYC parallel G4 DNA; FRET melting; 1 µM, DNA 0.2 µM): 3.7 ± 0.9 °C

Cc1ncsc1-c1ccc(CNC(=O)[C@@H]2C[C@@H](O)CN2C(=O)[C@@H](NC(=O)C2(F)CC2)C(C)(C)C)c(OCCC2CCN(c3nc(NCC(C)(C)C4(O)CCOC4)nc(N4CCC[C@H]4Cn4ccnn4)n3)CC2)c1 (stereo partly shown)
cooperativity alpha (VHL-elongin C-elongin B and BRD9; SPR; immobilized VHL-elongin C-elongin B; relative to: binary KD over ternary KD): 8.8

Some of these lines once more:
O=C(N/N=C/c1cc[n+](Cc2ccccc2)c2ccccc12)C(=O)N/N=C/c1cc[n+](Cc2ccccc2)c2ccccc12
ΔTm (hp2 hairpin duplex DNA; FRET melting; 1 µM): 1.5 ± 0.3 °C

O=C(N/N=C/c1ccc2c(ccc[n+]2Cc2ccccc2)c1)c1ccc2ccc3ccc(C(=O)N/N=C/c4ccc5c(ccc[n+]5Cc5ccccc5)c4)nc3c2n1
ΔTm (MYC parallel G4 DNA; FRET melting; 1 µM, DNA 0.2 µM, with: duplex DNA competitor 10 µM): 15.4 ± 1.2 °C
